Measured values collected from several papers.
Protocols differ between the studies behind these lines. ± marks the error that the study gave.
BCHE: Cholinesterase (BCHE, Homo sapiens, UniProt P06276)
Chain of UniProt P06276 (whole entry, looked up): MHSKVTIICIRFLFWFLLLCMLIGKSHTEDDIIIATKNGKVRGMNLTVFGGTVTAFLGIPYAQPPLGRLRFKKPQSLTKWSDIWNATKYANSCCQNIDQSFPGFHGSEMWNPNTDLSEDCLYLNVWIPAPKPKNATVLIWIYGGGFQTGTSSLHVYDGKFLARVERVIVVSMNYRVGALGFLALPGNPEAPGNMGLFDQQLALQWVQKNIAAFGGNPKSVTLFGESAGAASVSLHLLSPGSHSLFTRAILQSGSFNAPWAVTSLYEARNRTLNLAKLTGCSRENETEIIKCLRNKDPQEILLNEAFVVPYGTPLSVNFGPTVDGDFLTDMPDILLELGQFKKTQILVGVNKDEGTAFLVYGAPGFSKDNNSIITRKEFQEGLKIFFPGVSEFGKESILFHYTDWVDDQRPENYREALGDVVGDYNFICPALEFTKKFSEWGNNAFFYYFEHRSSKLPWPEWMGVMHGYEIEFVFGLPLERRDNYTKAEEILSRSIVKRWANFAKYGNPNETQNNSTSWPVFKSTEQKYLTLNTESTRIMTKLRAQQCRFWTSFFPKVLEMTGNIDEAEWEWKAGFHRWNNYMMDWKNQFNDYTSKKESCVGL
Chain of UniProt P11362 (whole entry, looked up): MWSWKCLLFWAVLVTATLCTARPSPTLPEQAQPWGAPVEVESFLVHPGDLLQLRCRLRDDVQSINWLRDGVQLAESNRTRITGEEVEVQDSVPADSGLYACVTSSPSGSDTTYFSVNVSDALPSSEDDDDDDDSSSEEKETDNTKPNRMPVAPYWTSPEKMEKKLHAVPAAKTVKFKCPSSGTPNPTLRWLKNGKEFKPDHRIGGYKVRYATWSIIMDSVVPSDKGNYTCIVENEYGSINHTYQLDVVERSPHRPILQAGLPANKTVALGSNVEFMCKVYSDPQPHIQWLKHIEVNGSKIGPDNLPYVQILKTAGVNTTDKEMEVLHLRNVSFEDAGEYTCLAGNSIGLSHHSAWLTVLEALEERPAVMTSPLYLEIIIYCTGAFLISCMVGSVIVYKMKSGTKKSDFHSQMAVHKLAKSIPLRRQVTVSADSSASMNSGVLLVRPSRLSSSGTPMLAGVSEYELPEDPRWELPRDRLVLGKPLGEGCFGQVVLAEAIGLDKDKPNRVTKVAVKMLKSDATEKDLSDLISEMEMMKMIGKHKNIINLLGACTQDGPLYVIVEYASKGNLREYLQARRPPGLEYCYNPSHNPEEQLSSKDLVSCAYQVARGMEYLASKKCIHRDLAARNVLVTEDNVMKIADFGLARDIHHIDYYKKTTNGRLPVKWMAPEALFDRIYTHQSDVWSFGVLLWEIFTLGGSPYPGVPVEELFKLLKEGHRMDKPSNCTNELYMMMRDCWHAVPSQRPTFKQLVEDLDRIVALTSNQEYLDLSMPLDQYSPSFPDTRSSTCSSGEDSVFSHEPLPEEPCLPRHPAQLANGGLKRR
Chain of UniProt P31751 (whole entry, looked up): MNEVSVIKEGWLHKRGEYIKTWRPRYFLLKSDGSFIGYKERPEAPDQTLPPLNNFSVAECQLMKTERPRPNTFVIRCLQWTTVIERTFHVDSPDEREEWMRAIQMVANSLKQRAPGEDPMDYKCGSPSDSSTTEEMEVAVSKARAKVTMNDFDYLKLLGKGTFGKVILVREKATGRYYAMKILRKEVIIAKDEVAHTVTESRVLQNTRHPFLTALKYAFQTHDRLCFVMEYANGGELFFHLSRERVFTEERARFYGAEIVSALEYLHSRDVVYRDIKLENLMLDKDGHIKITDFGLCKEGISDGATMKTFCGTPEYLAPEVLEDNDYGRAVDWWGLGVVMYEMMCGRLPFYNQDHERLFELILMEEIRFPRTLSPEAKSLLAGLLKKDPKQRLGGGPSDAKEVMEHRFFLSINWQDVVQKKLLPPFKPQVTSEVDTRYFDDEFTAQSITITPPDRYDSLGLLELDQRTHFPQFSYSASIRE
Chain of UniProt P19784 (whole entry, looked up): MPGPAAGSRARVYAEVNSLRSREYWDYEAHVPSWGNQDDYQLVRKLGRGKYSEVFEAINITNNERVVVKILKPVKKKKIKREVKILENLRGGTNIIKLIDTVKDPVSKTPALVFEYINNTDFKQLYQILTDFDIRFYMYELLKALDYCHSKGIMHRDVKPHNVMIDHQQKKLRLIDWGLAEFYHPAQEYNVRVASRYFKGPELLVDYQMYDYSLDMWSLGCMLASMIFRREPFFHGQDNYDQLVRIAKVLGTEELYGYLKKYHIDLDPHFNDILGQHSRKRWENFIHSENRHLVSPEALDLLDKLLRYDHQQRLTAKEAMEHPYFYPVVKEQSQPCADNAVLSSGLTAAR

Structure (SMILES)	target or system	assay	system	conditions	scale	quantity	value
C[C@@H](O)[C@@H](CO)NC(=O)[C@@H](CCCNC(=N)N)NC(=O)[C@@H]1CCCN1C(=O)[C@@H]1CSSC[C@H](NC(=O)[C@H](Cc2ccccc2)NC(=O)CN2CCN(CC(=O)O)CCN(CC(=O)O)CCN(CC(=O)O)CC2)C(=O)N[C@@H](Cc2ccc(O)cc2)C(=O)N[C@@H](Cc2ccccc2)C(=O)N[C@@H](CCC(N)=O)C(=O)N[C@@H](CC(N)=O)C(=O)N1 [gallium-68 labelled]			healthy Wistar rat, pancreas	intravenous, 8 MBq, 30 min, individual animals		tissue uptake	0.3 %ID/g
CCOC(=O)N1CCC(=C2c3ccc(Cl)cc3CCc3cccnc32)CC1	Plasmodium falciparum		D10			IC50	10 µM
O=C(Nc1cccnn1)N1CCC(=Cc2cccc(Oc3ccc(C(F)(F)F)cn3)c2)CC1	Fibroblast growth factor receptor 1 (FGFR1, Homo sapiens, UniProt P11362)	kinase activity, inhibitor		50 µM, human, with: poly(Glu:Tyr) substrate		inhibition	-15%
Cn1cc(-c2nc(N[C@@H]3CCCC[C@@H]3N)c(F)c3c2C(=O)NC3)cn1		item: Mouth haemorrhage	patients with relapsed or refractory AML	oral, 80 mg twice daily		hemorrhagic adverse events	17%
CC(C)[C@@H]1NC(=O)CNC(=O)[C@H](CC(N)=O)NC(=O)[C@H](CCCNC(=N)N)NC(=O)[C@H](Cc2ccc(O)cc2)NC(=O)[C@H](C(C)C)NC(=O)[C@@H](NC(=O)[C@@H](NC(=O)[C@H](CC(N)=O)NC(=O)[C@H](Cc2c[nH]c3ccccc23)NC(=O)[C@H](C)NC(=O)[C@H](Cc2ccccc2)NC(=O)CN)C(C)C)CSSC[C@@H](C(=O)N[C@@H](Cc2cnc[nH]2)C(=O)N[C@@H](CCCNC(=N)N)C(=O)N[C@@H](CCCNC(=N)N)C(=O)N[C@@H](C)C(=O)N[C@@H](CC(N)=O)C(N)=O)NC(=O)[C@H](C(C)C)NC(=O)[C@H](CCCNC(=N)N)NC1=O			ICR mouse, blood	intramammary, 10 mg/kg, day 5, 3 d dosing		lymphocytes	75 ± 1.28%
CCCC1CCC(C2CCC(c3ccc(F)c(F)c3)CC2)CC1 (stereo not drawn)		item: compound	human pregnant women, male fetuses, maternal serum	dose not given, paired maternal-cord samples, mean		concentration	0.33 ng/mL
COc1ncccc1-c1cnn2ccc(N3CCN(C(=O)OC(C)C)CC3)nc12			rat rotarod, plasma	30 mg/kg, 180 min		free concentration	84 nM
O=C1Nc2cc3[nH]nc(-c4ccncc4)c3cc2CN1Cc1ccccc1		CTCAE v4.03	advanced solid tumour patients	intravenous, 4.8 mg/kg, schedules 1/2		patients with increased GGT	0%
c1ccc2c(c1)-c1ccc3ccc4cccc5cc-2c1c3c45			PDMS-water partitioning	PAH compilation		literature range of log K	5.17 to 5.64 log units
O=S(=O)(Nc1ccccc1)c1ccc(NC(=S)Nc2ccccc2)cc1			mouse, male, spleen	oral, 80 mg/kg daily, 14 days	reference: body weight	relative organ weight	0.31%
C[C@H]1CN(c2n[nH]c3nc(N[C@H]4CC[C@H](NS(=O)(=O)CCC(F)(F)F)CC4)ncc23)CCO1	RAC-beta serine/threonine-protein kinase (AKT2, Homo sapiens, UniProt P31751)	biochemical				IC50	≥ 20 µM
CC(C)C[C@@H]1NC(=O)[C@H](CCCCN)NC(=O)[C@H](CC(N)=O)NC(=O)[C@H](CCCNC(=N)N)NC(=O)[C@H]([C@@H](C)O)NC(=O)[C@@H]2CSSC[C@@H]3NC(=O)[C@H]([C@@H](C)O)NC(=O)CNC(=O)CNC(=O)[C@H](C(C)C)NC(=O)[C@@H]4CSSC[C@H](NC(=O)[C@H]([C@@H](C)O)NC(=O)[C@H](CSSC[C@H](NC(=O)[C@H](C(C)C)NC(=O)[C@@H]5CCCN5C1=O)C(=O)NCC(=O)N[C@@H](CCC(=O)O)C(=O)N[C@@H]([C@@H](C)O)C(=O)N4)NC(=O)CNC(=O)[C@@H]1CCCN1C(=O)[C@H]([C@@H](C)O)NC(=O)[C@H](CC(N)=O)NC3=O)C(=O)N[C@@H](CO)C(=O)N[C@@H](Cc1c[nH]c3ccccc13)C(=O)N1CCC[C@H]1C(=O)N[C@@H](C(C)C)C(=O)N2		HPLC	ammonium bicarbonate 0.1 M	180 µM, 14 days, pH 9.0, 37 °C, deamidation stability		remaining peptide	92.4 ± 0.7%
O=C(Nc1ccccc1)C1CCN(C(=O)Oc2cccnc2)CC1		adverse event reporting	healthy women	oral, 100 mg, 9 days		subjects with cardiac disorders	0%
COc1cccc2c1CCCC2CCCN1CCN(C2CCCCC2)CC1 (stereo not drawn)			CD-1 mouse, male, lung	intraperitoneal, 1 mg/kg		elimination rate constant	7.72e-05 s⁻¹
COc1cc2c(Oc3ccc4[nH]c(C)cc4c3F)ccnc2cc1OCC1(N)CC1			paediatric refractory sarcoma patients	8 mg		grade 3 bone pain	0%
CC[C@H](C)[C@H](NC(C)=O)C(=O)N[C@H]1CSSC[C@@H](C(=O)N[C@H](C(N)=O)[C@@H](C)O)NC(=O)[C@H](CCCNC(=N)N)NC(=O)[C@H](Cc2c[nH]cn2)NC(=O)[C@](C)(CC)NC(=O)CNC(=O)[C@H](Cc2c[nH]c3ccccc23)NC(=O)[C@H](CC(=O)O)NC(=O)[C@H](CCC(N)=O)NC(=O)[C@H](Cc2c[nH]c3ccccc23)NC(=O)[C@H](C(C)C)NC1=O		isocratic RP-HPLC	C18 column	pH 7.4, 25 °C, elution method 2	higher = more lipophilic	log retention factor	0.082
CN1CCN(S(=O)(=O)c2cc([N+](=O)[O-])ccc2N(CCOS(C)(=O)=O)CCOS(C)(=O)=O)CC1			naive female NSG mice, plasma	intraperitoneal, 5 mg/kg		AUMC(0-inf)	0.16 µM·h²

Structure (SMILES)	target or system	assay	system	conditions	scale	quantity	value
Cc1cccc(S(=O)(=O)N2CCC[C@@H]2CCN2CCC(C)CC2)c1	BCHE	inhibitor		with Triton		IC50	5.94 ± 1.01 µM
CCc1ccc(CC/C=C/c2ccc3c(c2)C(=O)CC3)cc1			Sprague-Dawley rat, male, serum	oral, 450 mg/kg/day, 14 days		chloride	104 mM
CN[C@H]1CC[C@@H](c2ccc(Cl)c(Cl)c2)c2ccccc21			CD-1 mouse, male, plasma	intraperitoneal, 3 mg/kg		Tmax	30 min
NC(=O)[C@H]1CCN(c2ncnc(N)c2F)C[C@@H]1N1CCC[C@@H](Nc2cc(Cl)cc(C(F)(F)F)c2)C1=O			B-cell malignancy patients	oral, 410 mg twice daily, dose		any grade ≥3 adverse event	0%
CC(C)=CC1C(C(=O)OC(C#N)c2cccc(Oc3ccccc3)c2)C1(C)C (stereo not drawn)		item: CYP3A5	human, age 5 years			enzyme contribution to clearance	0.24%
C[C@@H]1OC(=O)NN=C1c1ccc(-c2ccc(F)cc2)c(C(F)(F)F)c1		phase I trial, item: Nausea all grades	human patients	20 mg loading then 1 mg daily		patients with adverse event	0%
CC1=C(C)C(=O)C(CCCCC#CCCCC#CCO)=C(C)C1=O	Plasmodium falciparum		D10			IC50	12.6 µM
COc1ccc2nc3cc(Cl)ccc3c(Nc3cc(CN4CCCC4)c(O)c(CN4CCCC4)c3)c2n1			mouse, blood	intraperitoneal, 57 mg/kg		monocytes	3.08%
Clc1cc(-c2cc(Cl)c(Cl)c(Cl)c2)cc(Cl)c1Cl			PDMS-water partitioning	PCB compilation	reference: maximum over minimum K	literature range factor	2
Cn1cncc1-c1c(F)cncc1NC(=O)c1c(N)nn2cc(F)cnc12			human patients	oral, 180 mg once daily		grade ≥3 lymphocyte decrease incidence	27%
C1=Cc2cccc3cccc1c23			developing zebrafish, liver			hepatic clearance	183 mL/min/kg
C[C@@H](N[C@H]1CCCC[C@@H]1NC(=O)c1ccc(Cl)cc1)c1cccc2ccccc12	BCHE	inhibitor		with Triton		IC50	17.4 ± 3.26 µM
CC[C@H]1[C@@H](O)[C@@H]2[C@H](CC[C@]3(C)[C@@H]([C@H](C)CCNC(=O)NS(=O)(=O)c4ccc(C(C)(C)C)cc4)CC[C@@H]23)[C@@]2(C)CC[C@@H](O)C[C@@H]12			human	concentration not given, study, with: quinidine		subjects with TEAEs	58.3%
CO[C@H]1C[C@@H]2CC[C@@H](C)[C@@](O)(O2)C(=O)C(=O)N2CCCC[C@H]2C(=O)O[C@H]([C@H](C)C[C@@H]2CC[C@@H](OC(=O)NCCOCCOCCOCCOCCOCCOCCOCCOCCC(=O)N3CCc4cc(Cn5nc(-c6ccc7oc(N)nc7c6)c6c(N)ncnc65)ccc4C3)[C@H](OC)C2)C[C@@H](O)[C@H](C)/C=C(\C)[C@@H](O)[C@@H](OC)C(=O)[C@H](C)C[C@H](C)/C=C/C=C/C=C/1C		phase 1 dose escalation	advanced solid tumour patients	intravenous, 12 mg weekly, any grade		deaths due to TEAEs	0%
CC[C@H](C)[C@H](NC(=O)[C@H](Cc1ccccc1)NC(=O)[C@H](CCC(=O)O)NC(=O)[C@H](CCCNC(=N)N)NC(=O)[C@H](C)NC(=O)[C@H](C)NC(=O)[C@H](CCC(N)=O)NC(=O)[C@H](CCC(=O)O)NC(=O)[C@H](CCC(=O)O)NC(=O)[C@H](CC(C)C)NC(=O)[C@H](Cc1ccc(O)cc1)NC(=O)[C@H](CO)NC(=O)[C@H](CO)NC(=O)[C@@H](NC(=O)[C@H](CC(=O)O)NC(=O)[C@H](CO)NC(=O)[C@@H](NC(=O)[C@H](Cc1ccccc1)NC(=O)[C@@H](NC(=O)CNC(=O)[C@H](CCC(=O)O)NC(=O)[C@H](C)NC(=O)CCc1cnc[nH]1)[C@@H](C)O)[C@@H](C)O)C(C)C)C(=O)N[C@@H](C)C(=O)N[C@@H](Cc1c[nH]c2ccccc12)C(=O)N[C@@H](CC(C)C)C(=O)N[C@H](C(=O)N[C@@H](CCCNC(=N)N)C(=O)NCC(=O)N[C@@H](CCCNC(=N)N)C(=O)N[C@@H](CCCCNC(=O)COCCOCCNC(=O)COCCOCCNC(=O)CC[C@H](NC(=O)CCCCCCCCCCCCCCCCC(=O)O)C(=O)O)C(=O)NCC(=O)NCC(=O)N[C@@H](CO)C(=O)N[C@@H](CCSC)C(=O)N[C@H](C(=O)N[C@@H](CCCCNc1c(NCCCCCN(O)C(=O)CCC(=O)NCCCCCN(O)C(=O)CCC(=O)NCCCCCN(O)C(C)=O)c(=O)c1=O)C(=O)O)C(C)C)C(C)C [zirconium-89 labelled]		ex vivo gamma counting	male Sprague-Dawley rat, blood	intravenous, 1 nmol, 24 h, mean of 3 animals		tissue uptake	0.191 %ID/g
COc1ccc(N2C(=O)N(c3c(C)cccc3Cl)Cc3cnc(Nc4ccc(C5CCN(C)CC5)cc4OC)nc32)nc1	Casein kinase II subunit alpha' (CSNK2A2, Homo sapiens, UniProt P19784)	kinase activity, inhibitor		0.5 µM, CK2A2		inhibition	-10%
